Experimental data from different studies.
Lines come from different studies, so protocols differ. Values joined by “and” are separate records of one study, mostly repeats; a detail may differ. ± gives the spread as reported.
CXCR4: C-X-C chemokine receptor type 4 (CXCR4, Homo sapiens, UniProt P61073)
Sequence of UniProt P61073 (whole entry, looked up): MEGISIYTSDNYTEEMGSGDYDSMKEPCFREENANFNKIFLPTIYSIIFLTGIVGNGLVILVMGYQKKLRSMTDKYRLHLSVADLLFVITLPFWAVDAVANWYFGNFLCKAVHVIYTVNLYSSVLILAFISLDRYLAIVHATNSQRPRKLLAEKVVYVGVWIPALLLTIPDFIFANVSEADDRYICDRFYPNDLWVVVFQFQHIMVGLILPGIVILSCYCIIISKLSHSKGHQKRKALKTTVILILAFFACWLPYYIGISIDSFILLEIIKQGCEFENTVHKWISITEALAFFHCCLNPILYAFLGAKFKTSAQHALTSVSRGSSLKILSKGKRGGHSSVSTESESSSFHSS
CD274 with PD-1: Programmed cell death 1 ligand 1, with PD-1 (CD274, Homo sapiens, UniProt Q9NZQ7)
Sequence of UniProt Q9NZQ7 (whole entry, looked up): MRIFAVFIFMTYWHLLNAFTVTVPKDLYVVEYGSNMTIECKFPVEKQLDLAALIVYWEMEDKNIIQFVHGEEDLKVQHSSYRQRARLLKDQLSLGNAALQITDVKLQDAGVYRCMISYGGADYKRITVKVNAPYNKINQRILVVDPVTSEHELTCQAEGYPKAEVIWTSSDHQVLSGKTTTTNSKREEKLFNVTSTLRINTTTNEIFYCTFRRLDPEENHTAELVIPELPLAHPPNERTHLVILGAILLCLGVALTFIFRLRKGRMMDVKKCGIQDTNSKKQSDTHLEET
BTK: Tyrosine-protein kinase BTK (BTK, Homo sapiens, UniProt Q06187)
Sequence of UniProt Q06187 (whole entry, looked up): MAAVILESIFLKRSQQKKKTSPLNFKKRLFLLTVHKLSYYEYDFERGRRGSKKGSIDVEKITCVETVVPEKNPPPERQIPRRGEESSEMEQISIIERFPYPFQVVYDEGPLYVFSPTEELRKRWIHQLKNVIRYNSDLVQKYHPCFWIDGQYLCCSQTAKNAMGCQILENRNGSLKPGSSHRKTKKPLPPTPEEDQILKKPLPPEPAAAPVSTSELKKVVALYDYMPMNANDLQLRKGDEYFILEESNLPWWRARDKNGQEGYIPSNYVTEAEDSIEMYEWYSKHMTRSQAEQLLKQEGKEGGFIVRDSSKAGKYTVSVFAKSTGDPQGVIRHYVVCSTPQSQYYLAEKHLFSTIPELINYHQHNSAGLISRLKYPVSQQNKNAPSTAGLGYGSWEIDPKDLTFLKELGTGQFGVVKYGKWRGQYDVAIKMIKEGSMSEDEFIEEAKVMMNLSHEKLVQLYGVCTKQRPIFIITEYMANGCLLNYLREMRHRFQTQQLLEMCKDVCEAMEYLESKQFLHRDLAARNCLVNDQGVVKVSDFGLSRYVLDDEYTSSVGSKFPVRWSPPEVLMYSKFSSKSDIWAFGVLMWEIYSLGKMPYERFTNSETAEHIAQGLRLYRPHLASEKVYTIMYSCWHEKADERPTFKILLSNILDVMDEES
CELF1 del215-384: CUGBP Elav-like family member 1 (CELF1, Homo sapiens, UniProt Q92879, del215-384)
Sequence of UniProt Q92879 (whole entry, unmodified, looked up): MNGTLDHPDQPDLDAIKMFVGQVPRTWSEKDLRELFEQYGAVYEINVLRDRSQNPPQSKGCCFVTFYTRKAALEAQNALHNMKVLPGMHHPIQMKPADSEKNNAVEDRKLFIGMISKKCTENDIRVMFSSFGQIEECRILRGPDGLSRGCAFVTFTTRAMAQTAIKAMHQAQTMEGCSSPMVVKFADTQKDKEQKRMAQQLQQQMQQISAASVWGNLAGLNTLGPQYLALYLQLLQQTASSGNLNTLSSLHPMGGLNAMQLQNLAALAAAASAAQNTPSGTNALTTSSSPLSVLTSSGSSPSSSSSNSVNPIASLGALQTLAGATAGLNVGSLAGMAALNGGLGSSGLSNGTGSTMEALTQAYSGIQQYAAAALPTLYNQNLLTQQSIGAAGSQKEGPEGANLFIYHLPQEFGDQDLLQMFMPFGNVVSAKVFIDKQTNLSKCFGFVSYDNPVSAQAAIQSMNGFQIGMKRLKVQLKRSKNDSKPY
Methionyl-tRNA synthetase, putative: Methionyl-tRNA synthetase, putative (Trypanosoma brucei brucei, UniProt Q38C91)
PSMB5: Proteasome Macropain subunit MB1 (PSMB5, Homo sapiens, UniProt P28074)
Sequence of UniProt P28074 (whole entry, looked up): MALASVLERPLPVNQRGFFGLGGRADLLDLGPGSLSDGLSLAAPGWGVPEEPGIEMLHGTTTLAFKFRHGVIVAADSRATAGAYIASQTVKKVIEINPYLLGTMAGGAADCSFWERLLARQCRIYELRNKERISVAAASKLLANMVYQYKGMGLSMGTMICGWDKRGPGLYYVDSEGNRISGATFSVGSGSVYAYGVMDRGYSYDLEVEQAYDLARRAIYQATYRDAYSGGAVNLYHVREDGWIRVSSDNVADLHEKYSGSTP
Sequence of UniProt P05556 (whole entry, looked up): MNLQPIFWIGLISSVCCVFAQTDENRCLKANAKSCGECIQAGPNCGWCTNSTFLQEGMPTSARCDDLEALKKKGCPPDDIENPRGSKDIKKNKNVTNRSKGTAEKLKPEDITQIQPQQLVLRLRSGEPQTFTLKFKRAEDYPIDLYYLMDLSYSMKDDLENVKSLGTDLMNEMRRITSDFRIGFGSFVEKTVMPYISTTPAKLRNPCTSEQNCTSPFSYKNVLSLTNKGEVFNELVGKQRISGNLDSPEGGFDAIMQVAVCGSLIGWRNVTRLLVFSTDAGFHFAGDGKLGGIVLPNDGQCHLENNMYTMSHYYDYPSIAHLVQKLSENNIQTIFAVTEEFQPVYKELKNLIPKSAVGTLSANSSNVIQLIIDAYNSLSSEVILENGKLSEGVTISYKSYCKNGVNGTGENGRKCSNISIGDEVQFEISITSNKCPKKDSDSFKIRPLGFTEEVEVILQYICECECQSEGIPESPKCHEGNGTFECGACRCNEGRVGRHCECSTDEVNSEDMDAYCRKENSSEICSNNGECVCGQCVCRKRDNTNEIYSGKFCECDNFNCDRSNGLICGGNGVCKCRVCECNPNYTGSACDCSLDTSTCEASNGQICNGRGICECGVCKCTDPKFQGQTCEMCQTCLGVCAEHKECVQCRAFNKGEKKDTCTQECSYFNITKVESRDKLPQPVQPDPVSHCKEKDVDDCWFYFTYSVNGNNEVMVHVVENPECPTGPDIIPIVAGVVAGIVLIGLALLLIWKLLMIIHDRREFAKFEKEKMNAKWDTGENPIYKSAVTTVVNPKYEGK
Sequence of UniProt P08235 (whole entry, looked up): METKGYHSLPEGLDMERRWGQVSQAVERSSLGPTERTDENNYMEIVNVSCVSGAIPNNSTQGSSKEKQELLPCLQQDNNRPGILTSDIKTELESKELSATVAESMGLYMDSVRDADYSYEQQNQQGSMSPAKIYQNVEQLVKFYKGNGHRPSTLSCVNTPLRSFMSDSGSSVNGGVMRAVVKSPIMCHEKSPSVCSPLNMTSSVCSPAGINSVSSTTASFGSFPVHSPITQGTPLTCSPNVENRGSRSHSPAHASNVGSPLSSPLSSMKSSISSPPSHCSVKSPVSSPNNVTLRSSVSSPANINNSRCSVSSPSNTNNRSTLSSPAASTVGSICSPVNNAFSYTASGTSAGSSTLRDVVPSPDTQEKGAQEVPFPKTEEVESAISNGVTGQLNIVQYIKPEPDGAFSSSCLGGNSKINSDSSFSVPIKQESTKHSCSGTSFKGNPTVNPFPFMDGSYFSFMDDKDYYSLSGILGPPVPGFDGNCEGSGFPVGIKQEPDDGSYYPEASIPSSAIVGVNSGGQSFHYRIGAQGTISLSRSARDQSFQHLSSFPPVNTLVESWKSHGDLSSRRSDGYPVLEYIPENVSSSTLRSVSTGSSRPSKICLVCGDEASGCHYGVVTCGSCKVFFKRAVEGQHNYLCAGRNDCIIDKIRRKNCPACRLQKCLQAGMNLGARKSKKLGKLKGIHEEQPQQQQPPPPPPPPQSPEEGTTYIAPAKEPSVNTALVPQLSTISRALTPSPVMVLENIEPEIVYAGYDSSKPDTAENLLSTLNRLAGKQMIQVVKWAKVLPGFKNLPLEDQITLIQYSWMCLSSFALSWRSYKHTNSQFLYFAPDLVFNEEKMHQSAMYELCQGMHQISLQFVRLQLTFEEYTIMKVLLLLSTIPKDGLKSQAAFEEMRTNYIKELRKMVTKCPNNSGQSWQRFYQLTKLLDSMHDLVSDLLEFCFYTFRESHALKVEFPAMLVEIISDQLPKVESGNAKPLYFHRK
Sequence of UniProt P08648 (whole entry, looked up): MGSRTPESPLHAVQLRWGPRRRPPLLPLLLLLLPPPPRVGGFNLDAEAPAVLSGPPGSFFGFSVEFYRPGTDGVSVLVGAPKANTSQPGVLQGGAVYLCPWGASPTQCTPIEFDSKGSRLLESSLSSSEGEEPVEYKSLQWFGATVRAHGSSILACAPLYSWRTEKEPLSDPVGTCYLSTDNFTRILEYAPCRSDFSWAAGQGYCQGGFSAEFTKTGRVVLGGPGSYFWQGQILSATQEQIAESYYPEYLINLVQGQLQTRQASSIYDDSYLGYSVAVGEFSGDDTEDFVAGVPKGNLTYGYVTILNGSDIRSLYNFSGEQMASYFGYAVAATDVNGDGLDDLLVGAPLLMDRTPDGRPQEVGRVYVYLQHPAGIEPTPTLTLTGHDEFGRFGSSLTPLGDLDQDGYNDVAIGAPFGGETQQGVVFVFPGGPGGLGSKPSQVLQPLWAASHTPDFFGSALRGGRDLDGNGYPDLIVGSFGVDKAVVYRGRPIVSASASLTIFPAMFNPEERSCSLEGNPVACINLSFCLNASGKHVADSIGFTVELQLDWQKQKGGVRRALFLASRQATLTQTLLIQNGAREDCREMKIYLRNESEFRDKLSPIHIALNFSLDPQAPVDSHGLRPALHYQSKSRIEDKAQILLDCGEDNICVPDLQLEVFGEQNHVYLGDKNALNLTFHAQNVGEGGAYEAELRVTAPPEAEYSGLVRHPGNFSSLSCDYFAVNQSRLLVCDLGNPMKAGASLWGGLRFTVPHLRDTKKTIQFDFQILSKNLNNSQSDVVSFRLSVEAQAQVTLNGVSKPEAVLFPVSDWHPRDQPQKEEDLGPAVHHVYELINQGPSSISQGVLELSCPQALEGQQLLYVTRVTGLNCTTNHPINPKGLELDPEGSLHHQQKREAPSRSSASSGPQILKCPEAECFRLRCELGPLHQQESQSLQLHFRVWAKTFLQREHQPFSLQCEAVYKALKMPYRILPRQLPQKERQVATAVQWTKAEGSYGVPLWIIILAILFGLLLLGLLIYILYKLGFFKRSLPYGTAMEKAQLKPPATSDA
Sequence of UniProt P14555 (whole entry, looked up): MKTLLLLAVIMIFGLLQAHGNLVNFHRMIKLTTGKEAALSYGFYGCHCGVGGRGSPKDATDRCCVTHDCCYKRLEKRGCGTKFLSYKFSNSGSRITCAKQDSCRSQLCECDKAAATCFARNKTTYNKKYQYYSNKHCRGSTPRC

`CCCCCCC1CCC/C1=N\NC(N)=S` (stereo not drawn) has an IC50 of 0.09 µM (Scavenger receptor class B member 1 (Mus musculus, UniProt Q61009); HDL binding, enhancer; ldlA[mSR-BI] cells; with: Alexa488-HDL).
With `S=C(NCC1(N2CCCCC2)CCCCC1)NC1CC2CCC1C2` (stereo not drawn) the IC50 was 20 µM (CXCR4; β-arrestin recruitment, antagonist).
`CC[C@H](C)[C@H](NC(=O)[C@H](CCCNC(=N)N)NC(=O)[C@@H]1CCCN1C(=O)[C@H](CCCCN)NC(=O)[C@@H](N)CC(C)C)C(=O)N[C@@H](CCCNC(=N)N)C(=O)O` gave an IC50 of 4.3 µM (B1 bradykinin receptor (Rattus norvegicus, UniProt P97583); ligand displacement, radioligand; cell membranes).
`Cc1nc2ccccc2c(=O)n1N` gave an IC50 of 32 ± 0.85 µM (Phospholipase A2, membrane associated (Homo sapiens, UniProt P14555); enzyme activity, inhibitor, colorimetric).
For `COc1ccc(-c2cc(Cl)c(C(=O)N[C@@H](CNC(=O)CNC(=O)c3cccc(NC(=N)N)c3)C(=O)O)c(Cl)c2)cc1`, the IC50 was 0.00501 µM (Integrin alpha-5/beta-1 (Homo sapiens, UniProt P05556+P08648); cell adhesion, inhibitor; SW480; with: fibronectin 0.3 µg/mL).
`C[C@@H]1Cc2c([nH]c3ccccc23)[C@@H](c2c(F)cc(/C=C/C(=O)O)cc2F)N1C12CC(C1)C2` gave an IC50 of 2.28 µM (Mineralocorticoid receptor (NR3C2, Homo sapiens, UniProt P08235); MR receptor activity, antagonist, cell-based).
With `CC(C)[C@@H]1NC(=O)[C@@H]2CCCN2C(=O)[C@H](CCCCN)NC(=O)[C@H](Cc2ccccc2)NC(=O)[C@H](Cc2ccccc2)NC(=O)[C@H](CC(=O)O)NC(=O)[C@H](CCC(=O)O)NC(=O)[C@H](Cc2ccc(O)cc2)NC(=O)[C@H](CC(=O)O)NC(=O)[C@H](CCC(=O)O)NC(=O)[C@H](CC(=O)O)NC(=O)[C@H](CCC(=O)O)NC(=O)[C@H](Cc2ccc(O)cc2)NC(=O)CSC[C@@H](C(=O)N[C@@H](Cc2ccc(O)cc2)C(=O)N[C@@H](Cc2ccccc2)C(N)=O)NC(=O)[C@H]([C@@H](C)O)NC1=O` the IC50 was 6.86 µM (C-C motif chemokine 2 (CCL2, Homo sapiens, UniProt P13500); chemokine binding, flow cytometry; THP-1; with: fluorescent CCL2 1.2 nM).
`N#Cc1c(N)nc2c(c1-c1ccc[nH]1)Cc1cc(O)ccc1-2` has an IC50 of over 10 µM (Thymocyte selection-associated high mobility group box protein TOX, with KAT7 (Homo sapiens, UniProt O94900); TOX-KAT7 binding, inhibitor, ELISA; no inhibition at 10 µM).
The IC50 of `Cc1cc(C(=O)N(CC(=O)Nc2ccccc2F)Cc2ccc(Cl)cc2)ccc1S(N)(=O)=O` is reported as 0.0129 µM (Carbonic anhydrase 9 (CA9, Homo sapiens, UniProt Q16790); enzyme activity, inhibitor).
With `Cc1c(COc2cc(OCc3cccc(C#N)c3)c(CNC(CO)CO)cc2Cl)cccc1-c1cccc(OCCCCCCC(=O)NO)c1` the IC50 was 0.0515 µM (CD274 with PD-1; PD-1/PD-L1 binding, inhibitor, HTRF).
The IC50 of `CCn1nc(Cl)c2c1-c1cnc(N)c(c1)O[C@H](C)c1cc(F)ccc1-c1nn(C)cc1C2` is reported as 0.25 µM (Dual serine/threonine and tyrosine protein kinase (DSTYK, Homo sapiens, UniProt Q6XUX3); enzyme activity, inhibitor, radiometric).
For `CCOc1cc(CN2CC3(CC(N4CCC(C(=O)O)CC4)=NO3)C2)cc(OCC)c1-c1ccc(F)cc1`, the IC50 was 5.89 µM (Somatostatin receptor type 5 (SSTR5, Homo sapiens, UniProt P35346, L174A); cAMP level, antagonist, GloSensor; AD293; L174A mutant, bandwidth 4.60, with: CST17 EC80 and forskolin).
For `C#CCNC(=O)c1ccc(S(=O)(=O)N[C@@H](CCCCNC(C)=S)C(=O)N[C@@H](CCCNC(=N)N)C(=O)N[C@@H](CC2CCCCC2)C(N)=O)cc1`, the IC50 was 0.91 µM (NAD-dependent protein deacetylase sirtuin-3, mitochondrial (SIRT3, Homo sapiens, UniProt Q9NTG7); enzyme activity, inhibitor, fluorescence).
For `Cc1nn(-c2cccc(N)c2)c(=O)c2cnc(Nc3ccc(N4CCNCC4)cc3)nc12`, the IC50 was over 10 µM (Angiopoietin-1 receptor (TEK, Homo sapiens, UniProt Q02763); enzyme activity, inhibitor).
`Cc1cc(C(=O)Nc2nc3cccc(C)c3n2[C@H]2CCCCN(C(=O)/C=C/CN(C)C)C2)ccn1` has an IC50 of 0.002 µM and 0.0025 µM (BTK; enzyme activity, inhibitor, HTRF).
The IC50 of `Fc1ccc(Nc2nc(NC3CCCCC3)c3cc(C(F)(F)F)ccc3n2)cc1F` is reported as 0.501 µM (Beta-2 adrenergic receptor (ADRB2, Homo sapiens, UniProt P07550, F133L); β-arrestin2 recruitment, antagonist, BRET; HEK293; mutant F133L, with: isoprenaline 1 µM).
`S=c1[nH]nc(Cc2ccccc2)[nH]1` has an IC50 of 0.36 ± 0.04 µM (CELF1 del215-384; CELF1-RNA binding, inhibitor, fluorescence polarization; 20 nM CELF1, with: 10 nM RNA).
With `CC1CCN(C(=O)c2cccc(NC(=O)Nc3ccc(Cl)cc3)c2)CC1` the IC50 was 1000 µM (Penicillin-binding protein 4 (Staphylococcus aureus, UniProt P72355); Bocillin-FL binding, gel densitometry; with: Bocillin-FL 40 µM).
`CC(=O)N[C@@H](Cc1ccc([N+](=O)[O-])cc1)C(=O)N[C@@H]1CSSC[C@@H](C(=O)N[C@H](Cc2ccc(O)cc2)C(N)=O)NC(=O)[C@H]([C@@H](C)O)NC(=O)[C@H](CCCCN)NC(=O)[C@@H](Cc2c[nH]c3ccccc23)NC(=O)[C@H](Cc2ccc(O)cc2)NC1=O` has an IC50 of about 1 µM (Somatostatin receptor type 3 (SSTR3, Homo sapiens, UniProt P32745); ligand displacement, radioligand).
`O=S(=O)(O)O/N=C(/CCc1ccccc1)S[C@@H]1O[C@H](CO)[C@@H](O)[C@H](O)[C@H]1O` gave an IC50 of 7.65 µM (Tyrosine-protein phosphatase non-receptor type 1 (PTPN1, Homo sapiens, UniProt P18031); enzyme activity, inhibitor, absorbance).
For `O=C(Nc1cccc(C(F)(F)F)c1)Nc1ccccc1O`, the IC50 was 5 µM (SRSF protein kinase 3 (SRPK3, Homo sapiens, UniProt Q9UPE1); enzyme activity, inhibitor, FRET).
For `O=C(CNC(=O)c1cccc(NC2=NCC(F)(F)CN2)c1)NC[C@H](NC(=O)c1c(Cl)cc(-c2ccccc2)cc1Cl)C(=O)O`, the IC50 was 100 µM (Integrin alpha-V/beta-5 (Homo sapiens, UniProt P06756+P18084); cell adhesion, inhibitor; SW480; with: vitronectin 1 µg/mL).
`Clc1cc(Cl)c2c(c1)[C@H](NCCCNc1nc3cccnc3[nH]1)CCO2` gave an IC50 of under 0.01 µM (Methionyl-tRNA synthetase, putative; enzyme activity, inhibitor).
`CCCCCCCCN(Cc1ccc(CNC(=O)OCCOC23CC4CC(C2)CC(C(N)C(=O)N2C(C#N)CC5CC52)(C4)C3)cc1)CC(O)C(O)C(O)C(O)CO` (stereo not drawn) has an IC50 of 0.561 µM (Dipeptidyl peptidase 9 (DPP9, Homo sapiens, UniProt Q86TI2); enzyme activity, inhibitor).
`CC(C)C[C@H](NC(=O)[C@H](Cc1ccc(CN)cc1)NC(=O)[C@H](Cc1ccccc1)N=[N+]=[N-])C(=O)N[C@@H](CC1CCC(C)CC1)C(=O)[C@@]1(C)CO1` (stereo partly drawn) has an IC50 of 0.145 µM (PSMB5; competitive ABPP; Raji cell lysate).
The IC50 of `O=C1C(Cl)=C(NCCN2CCOCC2)C(=O)c2ncccc21` is reported as 6.5 µM (Histone-lysine N-methyltransferase EHMT2 (EHMT2, Homo sapiens, UniProt Q96KQ7); enzyme activity, inhibitor).
`CN1CCC[C@@H]1C(=O)N[C@@H](Cc1ccc(-c2ccccc2)cc1)B(O)O` has an IC50 of over 10 µM (20S proteasome beta subunits, part β2 subunit (Plasmodium falciparum, UniProt Q8I261+Q8I6T3); β2 activity, inhibitor; with: Ac-WLR-AMC).
With `Cc1ccc(N=C2CC(=O)c3sc(C)nc3C2=O)cc1` the IC50 was 1.5 µM (Histone-arginine methyltransferase CARM1 (CARM1, Homo sapiens, UniProt Q86X55); enzyme activity, inhibitor).
`Oc1cc(NCCCNCc2cc(Cl)cc(Cl)c2)nc2ccccc12` has an IC50 of under 0.01 µM (Methionyl-tRNA synthetase, putative; enzyme activity, inhibitor).
For `Sc1nc[nH]n1`, the IC50 was 0.94 ± 0.08 µM (CELF1 del215-384; CELF1-RNA binding, inhibitor, fluorescence polarization; 20 nM CELF1, with: 10 nM RNA).
The IC50 of `CCN(CC)CC(=O)Nc1cccc(-n2cc(-c3ccc4ccc(-c5cn(-c6cccc(NC(=O)CN(CC)CC)c6)nn5)cc4c3)nn2)c1` is reported as over 10 µM (cAMP-dependent protein kinase catalytic subunit alpha (PRKACA, Homo sapiens, UniProt P17612); enzyme activity, inhibitor).
The IC50 of `Cc1c(COc2cc(OCc3cccc(C#N)c3)c(CNC(C)(CO)CO)cc2Cl)cccc1-c1cccc(OCCCCCCC(=O)NO)c1` is reported as 0.0224 µM (CD274 with PD-1; PD-1/PD-L1 binding, inhibitor, HTRF).
`CC(C)C[C@H](NC(=O)[C@H](Cc1ccc(CN)cc1)NC(=O)[C@H](Cc1ccccc1)N=[N+]=[N-])C(=O)N[C@@H](CCC1CCCCC1)C(=O)[C@@]1(C)CO1` gave an IC50 of over 10 µM (PSMB5; competitive ABPP; Raji cell lysate).
With `N=C(N)NCCC[C@@H]1NC(=O)[C@H](CCNC(=O)c2ccc(F)cc2)NC(=O)[C@@H](Cc2ccc(O)cc2)NC(=O)CNC(=O)[C@H](Cc2ccc3ccccc3c2)NC1=O` the IC50 was 0.632 µM (CXCR4).
The IC50 of `CC(C)C[C@H](NC(=O)[C@H](Cc1ccc(CN)cc1)NC(=O)[C@H](Cc1ccccc1)N=[N+]=[N-])C(=O)N[C@@H](CC1CCC2CCCCC2C1)C(=O)[C@@]1(C)CO1` (stereo partly drawn) is reported as over 10 µM (Proteasome subunit beta type-9 (Homo sapiens, UniProt P28065); competitive ABPP; Raji cell lysate).
`Cc1cc(NC2CCN(C)CC2)ccc1-c1cc2c(N3CCC[C@H](C(=O)NCc4ccc(OC(F)(F)F)cc4)C3)ncnc2[nH]1` has an IC50 of 1.43 µM (BTK; enzyme activity, inhibitor, mobility shift).

Some of these lines once more:
`O=S(=O)(O)O/N=C(/CCc1ccccc1)S[C@@H]1O[C@H](CO)[C@@H](O)[C@H](O)[C@H]1O` gave an IC50 of 7.65 µM (Tyrosine-protein phosphatase non-receptor type 1 (PTPN1, Homo sapiens, UniProt P18031); enzyme activity, inhibitor, absorbance).
`CCCCCCC1CCC/C1=N\NC(N)=S` (stereo not drawn) has an IC50 of 0.09 µM (Scavenger receptor class B member 1 (Mus musculus, UniProt Q61009); HDL binding, enhancer; ldlA[mSR-BI] cells; with: Alexa488-HDL).
`Oc1cc(NCCCNCc2cc(Cl)cc(Cl)c2)nc2ccccc12` has an IC50 of under 0.01 µM (Methionyl-tRNA synthetase, putative; enzyme activity, inhibitor).
`Cc1nc2ccccc2c(=O)n1N` gave an IC50 of 32 ± 0.85 µM (Phospholipase A2, membrane associated (Homo sapiens, UniProt P14555); enzyme activity, inhibitor, colorimetric).
With `CC1CCN(C(=O)c2cccc(NC(=O)Nc3ccc(Cl)cc3)c2)CC1` the IC50 was 1000 µM (Penicillin-binding protein 4 (Staphylococcus aureus, UniProt P72355); Bocillin-FL binding, gel densitometry; with: Bocillin-FL 40 µM).
